{"data": "Experimental data collected from several papers", "note": "Every numbered part comes from another study and shows a few of its results, in no order."}
{"data": "Block 1", "cell line": "HEK-293T", "read-out": "pseudovirus infection", "technique": "FDA-approved drug library screen", "organism": "VSV pseudotyped with SARS-CoV-2 spike", "tested at": "10 µM", "time": "16 h", "relative to": "vehicle-treated"}
{"SMILES": "OCCOCCN1CCN(C(c2ccccc2)c2ccc(Cl)cc2)CC1 (stereo not drawn)", "GFP-positive cells": "48.5%"}
{"SMILES": "CCOC(=O)O[C@]1(C(=O)OCCl)CC[C@H]2[C@@H]3CCC4=CC(=O)C=C[C@]4(C)[C@H]3[C@@H](O)C[C@@]21C", "GFP-positive cells": "105%"}
{"SMILES": "CCN(CC)C(=O)/C(C#N)=C/c1cc(O)c(O)c([N+](=O)[O-])c1", "GFP-positive cells": "81.1%"}
{"SMILES": "C[C@]12CC[C@@H]3c4ccc(OC(=O)c5ccccc5)cc4CC[C@H]3[C@@H]1CC[C@@H]2O", "GFP-positive cells": "98.7%"}
{"data": "Block 2", "organism": "SARS-CoV-2", "read-out": "cytopathic effect", "cells": "Vero E6", "tested at": "10 µM"}
{"Structure (SMILES)": "CC(C)(C)c1ccc(S(=O)(=O)/C=C/C#N)cc1", "inhibition [%]": -35.7}
{"Structure (SMILES)": "O=c1[nH]nc(Sc2ncc([N+](=O)[O-])s2)n1-c1ccc2c(c1)OCCO2", "inhibition [%]": -22.7}
{"Structure (SMILES)": "CN1CCN(C2=C(Cl)C(=O)N(c3ccc(Cl)c(Cl)c3)C2=O)CC1", "inhibition [%]": -10.3}
{"Structure (SMILES)": "CC(Cc1ccc(O)c(O)c1)C(C)Cc1ccc(O)c(O)c1 (stereo not drawn)", "inhibition [%]": -9}
{"data": "Block 3", "target": "Replicase polyprotein 1ab, nsp13 helicase (rep, Severe acute respiratory syndrome coronavirus 2, UniProt P0DTD1)", "mode": "inhibitor", "tested at": "20 µM"}
{"SMILES": "CC(C)(C)C(=O)OCOC(=O)[C@@H]1N2C(=O)[C@@H](/N=C/N3CCCCCC3)[C@H]2SC1(C)C", "inhibition": "-7.33%"}
{"SMILES": "O=C(O)c1cc(=O)c2ccccc2[nH]1", "inhibition": "2.58%"}
{"SMILES": "NC(=O)C(c1ccccc1)(c1ccc(F)cc1)c1ccc(F)cc1", "inhibition": "2.69%"}
{"SMILES": "O=C1C(O)=C(O)C(=O)C(O)=C1O", "inhibition": "5.92%"}
{"SMILES": "C[C@]12CCC(=O)C=C1C=C[C@@H]1[C@@H]2CC[C@@]2(C)[C@H]1CC[C@@]2(O)CCC(=O)O", "inhibition": "-4.98%"}
{"SMILES": "CCOCc1cc(OC)c(-c2ccc(C[C@H](NC(=O)c3c(F)cccc3F)C(=O)O)cc2)c(OC)c1", "inhibition": "-4.51%"}
{"SMILES": "FC(F)(F)c1cc(CO[C@H]2CCCN[C@H]2c2ccccc2)cc(C(F)(F)F)c1", "inhibition": "-7.06%"}
{"SMILES": "N[C@H](C(=O)O)c1cc(O)no1", "inhibition": "2.37%"}
{"SMILES": "Cc1ccc(NCCCc2ccccc2)c(N)c1", "inhibition": "5.97%"}
{"SMILES": "Cc1c(CN2CCN(C(=O)[C@H](C)O)CC2)sc2c(N3CCOCC3)nc(-c3cnc(N)nc3)nc12", "inhibition": "0.92%"}
{"SMILES": "CCCCC1(C2CCCC2)Cc2cc(OCCCC(=O)O)c(Cl)c(Cl)c2C1=O (stereo not drawn)", "inhibition": "10.6%"}
{"SMILES": "c1ccc(CCNc2nc(-c3ccccc3)cs2)cc1", "inhibition": "5.31%"}
{"SMILES": "CC(C(=O)O)c1ccc2c(c1)Cc1ccccc1-2 (stereo not drawn)", "inhibition": "6.43%"}
{"SMILES": "COC(=O)CC1CC(c2ccc(O)cc2)=NO1 (stereo not drawn)", "inhibition": "13.8%"}
{"SMILES": "C#C[C@]1(OC(=O)CCCCCC)CC[C@H]2[C@@H]3CCC4=CC(=O)CC[C@@H]4[C@H]3CC[C@@]21C", "inhibition": "-4.04%"}
{"SMILES": "N[C@@]1(C(=O)O)CC[C@@H](C(=O)O)C1", "inhibition": "3.25%"}
{"SMILES": "CN(C)CCOc1cc(-c2cn[nH]c2)ccc1NC(=O)C1COc2ccccc2O1 (stereo not drawn)", "inhibition": "4.93%"}
{"SMILES": "CC(C(=O)O)c1cccc(Oc2ccccc2)c1 (stereo not drawn)", "inhibition": "1.01%"}
{"SMILES": "N#CC(c1ccccc1)(c1ccccc1)c1ccccc1Cl", "inhibition": "8.72%"}
{"SMILES": "COC(=O)[C@H](Cc1ccccc1)NC(=O)[C@@H](N)CC(=O)O", "inhibition": "-3.55%"}
{"SMILES": "COc1ccc(-c2csc(NC(=O)[C@H]3CCCCN3S(=O)(=O)c3ccc(C)cc3)n2)cc1", "inhibition": "4.03%"}
{"SMILES": "Cc1c(-c2ccc(-c3ccccc3F)cc2)nc2ccc(F)cc2c1C(=O)O", "inhibition": "1.77%"}
{"SMILES": "COc1cccc2c1C(=O)c1c(O)c3c(c(O)c1C2=O)C[C@@](O)(C(=O)CO)C[C@@H]3O[C@H]1C[C@H](N)[C@@H](O)[C@H](C)O1", "inhibition": "97.5%"}
{"SMILES": "Cc1nc(Nc2ccc(F)cc2)nc(N2CCc3ccccc3C2C)c1C (stereo not drawn)", "inhibition": "8.39%"}
{"data": "Block 4", "target": "Histone acetyltransferase KAT6A, winged helix 2, GST fusion (KAT6A, Homo sapiens, UniProt Q92794, residues 85-181)", "technique": "protein binding microarray", "form": "double-stranded DNA, one strand shown", "medium": "in vitro", "tested at": "not given", "setting": "8-mer, flanks averaged, mean of 2 arrays, mostly near background", "relative to": "not given", "direction": "higher = stronger binding", "Construct (chain)": "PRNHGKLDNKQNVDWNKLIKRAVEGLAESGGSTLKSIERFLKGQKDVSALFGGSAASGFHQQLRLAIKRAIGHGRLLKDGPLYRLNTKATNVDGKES"}
{"Sequence": "ACATACTC", "E-score": -0.114}
{"Sequence": "CAAATACC", "E-score": 0.00218}
{"Sequence": "CGAACATA", "E-score": 0.0382}
{"Sequence": "AAAGCATC", "E-score": 0.0558}
{"Sequence": "CGTCACTA", "E-score": -0.0836}
{"Sequence": "ATGCGGGG", "E-score": 0.0353}
{"Sequence": "AATTATGA", "E-score": 0.103}
{"Sequence": "GCTCACCC", "E-score": 0.0934}
{"data": "Block 5", "target": "RNA binding protein fox-1 homolog 2, RRM domain, GST-SBP tag (RBFOX2, Homo sapiens, UniProt O43251-10, residues 100-194)", "technique": "RNA Bind-n-Seq", "form": "RNA", "medium": "in vitro", "tested at": "365 nM", "setting": "natural RNA segment, single round, ends assumed", "relative to": "no-protein control", "direction": "higher = stronger binding", "Residues (chain)": "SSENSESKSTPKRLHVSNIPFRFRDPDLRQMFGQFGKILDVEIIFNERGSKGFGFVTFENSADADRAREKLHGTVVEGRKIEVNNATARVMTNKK"}
{"Sequence": "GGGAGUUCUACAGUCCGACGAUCCUGAAUGAGAGAAAAUUGUAUAACCAUCCUGCUGUUCCUUUAGUGCAAUACAAUAAAACUCUGAAAUAAGACUCACUUUCAGUGCAUUGUUUGAGAUUAAAAAUAGUAUUUGGAAUUCUCGGGUGCCAA", "RBNS enrichment (R)": 0.793}
{"Sequence": "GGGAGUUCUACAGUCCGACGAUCGAAGACAUUUGUGAGAGAGGAGAUGAUUAGAAUUCUAGUAAUGUACUUUUAAGAUGUUACAGAUACAAAGAAAUGAUGUGGGUGUCAGGAGACUAAAGGAUGUUGAAGGCUGGAAUUCUCGGGUGCCAA", "RBNS enrichment (R)": 0.941}
{"Sequence": "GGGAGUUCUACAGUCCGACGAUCCCUCAGAAUCCCUACAUCCUGCUUAGAACUGUGGCCGGCCUAAUCUGUCAAGAGGCUUGGCUCUUCAAGACUCAGUGUCCACUUUAUCAAAUGUGACCGGUGUAGCUGUAUGGAAUUCUCGGGUGCCAA", "RBNS enrichment (R)": 0.342}
{"Sequence": "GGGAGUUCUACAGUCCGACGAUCCAUGUCACGAUGUCAGAUUCAACAGGAGAACUCUGUGCCCUUCCUAUAGACACCAAAUGUCUGGCACAAUCUCUACUGAGCAGCACCCACUUAAGACAGCAGAGCACCUUUGGAAUUCUCGGGUGCCAA", "RBNS enrichment (R)": 0.824}
{"Sequence": "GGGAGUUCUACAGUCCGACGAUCUUUUGGCAAAUAAAGUAUUAUUCUCUAUCAUCAUCUUUUGAAUUCCUGUCCCUAGUAUGUUCUUUCAUGUUCUGGGUAAAAUUUCCAACCCUCAAAGAGUCUAAAACGUCUGGAAUUCUCGGGUGCCAA", "RBNS enrichment (R)": 0.778}
{"Sequence": "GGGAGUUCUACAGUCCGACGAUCAGUGUCAGGCUAGAAAUUGAAUUGCUGAGUUUUGUGUAUCCUUUAAAUUAAAAACCACAAGUGUUUAUUGUAGUGGUUAAACUGUAGCAUCUCAGCAUCUGGGUGGAAGCUGGAAUUCUCGGGUGCCAA", "RBNS enrichment (R)": 1.45}
{"Sequence": "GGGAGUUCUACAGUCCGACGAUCAAAAAAGGAAAAAAUCCCUAAACAUUCACCUUGACCUUAUUUAUGACUUUACGUGCAAAUGUUUUGACCAUAUUGAUCAUAUAUUUUGACAAAAUAUAUUUAUAACUACGUGGAAUUCUCGGGUGCCAA", "RBNS enrichment (R)": 0.397}
{"Sequence": "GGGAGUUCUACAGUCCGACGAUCAUCAGUGGUGGGUUUUCAAAAUGUACUUGUUCUAAUAAGUUGUACAAUGAACUAAAUCAGUGGCAUUCUCUAGAUAAUGUGGGGGAAGGUUAGAAUAUUUUCUGGCCUUCUGGAAUUCUCGGGUGCCAA", "RBNS enrichment (R)": 0.451}
{"note": "Excerpt of the above (block 3):"}
{"SMILES": "CCOCc1cc(OC)c(-c2ccc(C[C@H](NC(=O)c3c(F)cccc3F)C(=O)O)cc2)c(OC)c1", "inhibition": "-4.51%"}
{"SMILES": "O=C(O)c1cc(=O)c2ccccc2[nH]1", "inhibition": "2.58%"}
{"SMILES": "CC(C)(C)C(=O)OCOC(=O)[C@@H]1N2C(=O)[C@@H](/N=C/N3CCCCCC3)[C@H]2SC1(C)C", "inhibition": "-7.33%"}
